Results of several laboratories.
Every numbered part comes from another study and shows a few of its results, in no order. Changes are numbered by the printed parent chain.

Study 1
Substance: PhoQ, residues 284 288 289 292 302 303 SLANIV
Technique: Sort-seq
Item: YFP reporter
Medium: E. coli
Notes: PhoQ-PhoP variant library
With: 10 µM Mg2+
Reference: high Mg2+ state
Reading: higher = stronger signaling
Endpoint: fold induction
PhoP, residues 12 14 15 18 19 SHWTV (Escherichia coli, UniProt P23836): 1.3
PhoP, residues 12 14 15 18 19 STHWV (Escherichia coli, UniProt P23836): 11.3
PhoP, residues 12 14 15 18 19 QYCSL (Escherichia coli, UniProt P23836): 4.68

Study 2
Target: RING finger protein unkempt homolog, zinc fingers 1-6, GST-SBP tag (UNK, Homo sapiens, UniProt Q9C0B0, residues 30-357)
Technique: RNA Bind-n-Seq
Form: RNA
Medium: in vitro
Tested at: not given
Notes: RNA with constant flanks, ends assumed
Reference: input RNA pool
Reading: higher = stronger binding
Endpoint: bound/input enrichment
Construct (chain): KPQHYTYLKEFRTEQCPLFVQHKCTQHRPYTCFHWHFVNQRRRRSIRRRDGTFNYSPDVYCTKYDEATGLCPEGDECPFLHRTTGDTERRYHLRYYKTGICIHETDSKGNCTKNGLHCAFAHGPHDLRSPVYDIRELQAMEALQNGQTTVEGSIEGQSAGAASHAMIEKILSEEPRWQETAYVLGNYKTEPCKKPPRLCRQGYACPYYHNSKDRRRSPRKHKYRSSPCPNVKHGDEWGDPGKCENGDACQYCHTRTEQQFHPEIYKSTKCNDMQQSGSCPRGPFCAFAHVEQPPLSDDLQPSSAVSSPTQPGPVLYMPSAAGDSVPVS
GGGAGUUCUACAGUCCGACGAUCAAGCUUGGAGAAGAACCAGGGGAUGAGGUUGAUGUUCCAAAGGAUGAGCUUAGUACCGAUUCCGGAAUGUUAUUUAUCGGUGGAACCAAACCUCCCUAGAGAGUACUGUGAAAGCUGGCACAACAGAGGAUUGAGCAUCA: 0.252 ratio
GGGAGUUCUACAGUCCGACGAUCAUAUUUCAUAUUGCAAAGAUGUUUACAAGUAUUUUAAUUUAAGUUCAGUGAACUUUUUUGCCGCUGGGUUAAAUCUUUUUAUUUUAGUAUGGCCUUAUGGCAAAGAACACUGUAUUAUUUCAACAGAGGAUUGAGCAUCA: 2.23 ratio
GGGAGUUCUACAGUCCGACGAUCGGACUGGUUAUGACAGAGGCACAUCUUCCCAGUCAGACUUUGGAACAGGGCCUUGAUGUUUCCGAAAUUAUGAGAAACAUUCAUAUAUUUGUGUCCCGAUACCUCUAUAAUCUCAACAAUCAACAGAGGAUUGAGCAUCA: 0.234 ratio
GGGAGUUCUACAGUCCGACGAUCUCAUUGCCCUCAACAUGAAGACUGCCAUAUUCCAAGUCACAUUAUUUUACCAAUGGAAUUACCGAAUUAACAGUAUUUUAAAUUACGUUUAUAACACUGCAGAGACCUUAAGUGCUAAACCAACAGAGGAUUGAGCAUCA: 0.315 ratio
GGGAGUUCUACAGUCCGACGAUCUUUCAGCAACUGGUCAAUUUUUCAGAAGGAGGACCGGGCUCUAAUUCCACUGGCAGUGAAGCCGCAUCAAUGUCCUCUCAACUUCCAGAUACACCUAACAGCAUGGUAGCCAGUCCUAUUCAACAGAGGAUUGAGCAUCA: 0.203 ratio
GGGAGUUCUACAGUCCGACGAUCCUUGACGAUGAUGAAUGUCCUUUACAAAUCUUCAGGGAAUGGCCAAGUGACAAAGGGAUUUCCGUCUUUCAGUUGAAGAGGAGACCACCGGACUACAUCCCAAAGAAAAUGAAGAAACAUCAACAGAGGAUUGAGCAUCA: 0.249 ratio
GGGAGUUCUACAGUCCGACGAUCGAAGAAGGCUGCUUUAUGUUUAUUUUUCAAGACUUUAAAAAUAUUUUUUGGUUGUAUUGCACCCGGAAAUCUCUCCCACCUCUCCCUUUUCUCUUUCUUUCCCUAUACAAAAUAAAAGGCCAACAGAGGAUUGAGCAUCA: 1.42 ratio
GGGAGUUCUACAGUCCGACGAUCAGCAAGAUCAUGUGCAUAUCAUCCCAUUGUAAAGCGACUUCAAAAAUAUGGGAACACAGUCCGUUAUUUUUACACAGUUCUUUUUGUUUUUGUGUGUGUGUGCUGUCGCUUGUCGACAACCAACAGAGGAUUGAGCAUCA: 0.124 ratio
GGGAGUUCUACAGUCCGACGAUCGAUGUCAGGACCAUUCUGCUCUCCAUCCAGAGCCUUCUAGGAGAACCCAACAUUGACCGUCCCUUGAACACACAUGCUGCCGAGCUCUGGAAAAACCCCACAGCUUUUAAGAAGUACCUGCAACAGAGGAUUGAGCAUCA: 0.216 ratio
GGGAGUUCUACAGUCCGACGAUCGACAGUGAAGGCCCACUGUGUGAAUUGCUUUUUUUCUUCCUGACUGCAAUCUUCCAGGCAACCGCUGAAGAAGAAGAGGAAGUAGCCAAAGAGCAACUAACUGAUGCUGACACCAAAGAUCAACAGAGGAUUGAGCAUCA: 0.0802 ratio
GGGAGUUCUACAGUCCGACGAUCUUCUUAUACCUGGAUUUGGAAUUGAGUAUUCUUGAAAUGCCUAUAUUUGAGGAAGAUAAAUCCGGAGUUUAGAGAGCCAUAGUAAUACACUGAACGUUUCUUGUUAAAACUGUAACCUUGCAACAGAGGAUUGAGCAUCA: 2.57 ratio

Study 3
Target: CCNB1, cyclin fold, Cln2 fusion (human)
Technique: yeast growth competition, sequencing
Medium: yeast
Notes: weak parent motif
Reference: not given
Reading: higher = stronger binding
Endpoint: normalised enrichment score
Starting sequence: CDC25A docking peptide (human); PPHRRRLLFACSP
PPHRGRLLFACSP [R5G]: 1.15
PPHRPRLLFACSP [R5P]: 0.298
PPHRRRGLFACSP [L7G]: 0.52
PPHRRRLLFACSN [P13N]: 0.849
PPKRRRLLFACSP [H3K]: -0.0458
PPHKRRLLFACSP [R4K]: 0.737
PPHRRRLLFACYP [S12Y]: 0.831
PPLRRRLLFACSP [H3L]: 0.755
PPHRAAAAFACSP [R5A R6A L7A L8A]: 0.14
PPHFRRLLFACSP [R4F]: 0.337
PIHRRRLLFACSP [P2I]: 0.752
PPHIRRLLFACSP [R4I]: 1.26
PSHRRRLLFACSP [P2S]: 0.315
PQHRRRLLFACSP [P2Q]: 1.16

Study 4
Target: Ras GTPase-activating protein-binding protein 1, C-terminal RGG region (G3BP1, Homo sapiens, UniProt Q13283)
UniProt Q13283, sequence (whole entry, looked up): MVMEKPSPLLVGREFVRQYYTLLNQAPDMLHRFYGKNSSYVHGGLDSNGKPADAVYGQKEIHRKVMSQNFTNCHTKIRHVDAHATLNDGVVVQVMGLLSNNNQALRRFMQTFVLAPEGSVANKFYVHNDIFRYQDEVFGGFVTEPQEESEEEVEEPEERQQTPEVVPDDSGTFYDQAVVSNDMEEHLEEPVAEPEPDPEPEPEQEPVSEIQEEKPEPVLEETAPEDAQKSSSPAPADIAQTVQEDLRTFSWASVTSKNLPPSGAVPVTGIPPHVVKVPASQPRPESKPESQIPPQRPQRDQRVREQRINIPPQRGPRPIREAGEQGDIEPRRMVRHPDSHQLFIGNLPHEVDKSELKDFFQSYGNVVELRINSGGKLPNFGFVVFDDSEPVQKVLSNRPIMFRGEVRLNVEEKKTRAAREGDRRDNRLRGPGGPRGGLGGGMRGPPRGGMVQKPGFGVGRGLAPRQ
Technique: RNA Bind-n-Seq
Form: RNA
Medium: in vitro
Tested at: 1 µM
Notes: whole 134-nt RNA, ends assumed
With: 150 mM KCl
Reference: input library
Reading: higher = stronger binding
Endpoint: log2 enrichment
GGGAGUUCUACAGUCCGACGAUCAGUCCUGUGCUACACAUCGUAUGUACCGAAUCGGGGUUUUUUUGGGGUGGGGUGGGGAAAGUAUUAUGUUACGCCGUUCGGAUCUGCACUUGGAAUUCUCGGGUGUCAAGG: 1.51
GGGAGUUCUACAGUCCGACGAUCCCUGUGCUACACAUCGUAUGUACCGAAUCGGGGAAAAAAAGGGGAAAAAAAGGGGUGGGGAAAGUAUUAUGUUACGCCGUUCGGAUCUGCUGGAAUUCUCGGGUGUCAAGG: 0.532
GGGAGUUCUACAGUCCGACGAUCUCCCCCCUAUUGGAAGUAAAGGGGAACAUAGAACUGAAGAGACCUCUGAUUAAGGCCCCUUCCCAGCUGCCUCUCUCAGGAAGCAGACUCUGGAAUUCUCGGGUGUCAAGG: -1.71
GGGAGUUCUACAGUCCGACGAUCUGCUUCUGAGUUGCCCAGGAGACCACUGGCAGAUGUCCCGGCGAAGAGAAGAGACACAUUGUUGGAAGAAGCAGCCCAUGACAGCUCCCCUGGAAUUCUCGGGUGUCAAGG: -0.995
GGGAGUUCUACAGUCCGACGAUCAGUCCUGUGCUACACAUCGUAUGUACCGAAUCGGAAAAAGGAAAAAGGUUUUUUUGGAAAGUAUUAUGUUACGCCGUUCGGAUCUGCACUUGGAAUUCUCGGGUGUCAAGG: -2.4
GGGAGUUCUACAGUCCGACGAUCAGUCCUGUGCUACACAUCGUAUGUACCGAAUCGGGGUGGGGUGGGGAAAAAAAGGGGAAAGUAUUAUGUUACGCCGUUCGGAUCUGCACUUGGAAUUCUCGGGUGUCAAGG: 1.21
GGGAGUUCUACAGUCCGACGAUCUCCUGUGCUACACAUCGUAUGUACCGAAUCGGGGAAAAAGGGGAAAGGGGUUUUUGGGGAAAGUAUUAUGUUACGCCGUUCGGAUCUGCAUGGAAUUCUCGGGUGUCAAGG: 2.36
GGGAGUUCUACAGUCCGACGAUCUUUAAGAGCAGCCAGGGAGAUAGUGGCGUUGACUUGAGUGCCGAGUCUCGGGAGUCGUCUGCGACCUCCUCGCAGCGCAGCUCCCCAUAUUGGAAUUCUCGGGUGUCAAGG: 0.664
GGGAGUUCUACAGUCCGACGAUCAGUCCUGUGCUACACAUCGUAUGUACCGAAUCGGGAAAAGGGGAAAAGGGGAAAAGGGAAAGUAUUAUGUUACGCCGUUCGGAUCUGCACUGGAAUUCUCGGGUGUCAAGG: 0.621
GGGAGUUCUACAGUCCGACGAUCGUCCUGUGCUACACAUCGUAUGUACCGAAUCGGAAAAAGGAAAAAAAGGAAAAAAAGGAAAGUAUUAUGUUACGCCGUUCGGAUCUGCACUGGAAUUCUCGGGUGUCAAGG: -1.71
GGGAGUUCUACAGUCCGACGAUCGUCCUGUGCUACACAUCGUAUGUACCGAAUCAAAUUUUUAAACCCAAACCCCCCCAAAAAAGUAUUAUGUUACGCCGUUCGGAUCUGCACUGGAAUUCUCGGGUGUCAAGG: -0.825

A few entries again (study 2):
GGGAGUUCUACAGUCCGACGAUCUUCUUAUACCUGGAUUUGGAAUUGAGUAUUCUUGAAAUGCCUAUAUUUGAGGAAGAUAAAUCCGGAGUUUAGAGAGCCAUAGUAAUACACUGAACGUUUCUUGUUAAAACUGUAACCUUGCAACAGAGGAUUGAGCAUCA: 2.57 ratio
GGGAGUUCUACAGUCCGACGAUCGGACUGGUUAUGACAGAGGCACAUCUUCCCAGUCAGACUUUGGAACAGGGCCUUGAUGUUUCCGAAAUUAUGAGAAACAUUCAUAUAUUUGUGUCCCGAUACCUCUAUAAUCUCAACAAUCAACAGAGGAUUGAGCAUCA: 0.234 ratio
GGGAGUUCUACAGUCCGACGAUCGACAGUGAAGGCCCACUGUGUGAAUUGCUUUUUUUCUUCCUGACUGCAAUCUUCCAGGCAACCGCUGAAGAAGAAGAGGAAGUAGCCAAAGAGCAACUAACUGAUGCUGACACCAAAGAUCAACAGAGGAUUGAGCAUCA: 0.0802 ratio
